Experimental data from different studies.
Numbered parts are unrelated; each lists some results of a single study.

Set 1
Target: Sal-like protein 4, full length isoform A (SALL4, Homo sapiens, UniProt Q9UJQ4, residues 1-1053)
Chain of UniProt Q9UJQ4 (whole entry, looked up): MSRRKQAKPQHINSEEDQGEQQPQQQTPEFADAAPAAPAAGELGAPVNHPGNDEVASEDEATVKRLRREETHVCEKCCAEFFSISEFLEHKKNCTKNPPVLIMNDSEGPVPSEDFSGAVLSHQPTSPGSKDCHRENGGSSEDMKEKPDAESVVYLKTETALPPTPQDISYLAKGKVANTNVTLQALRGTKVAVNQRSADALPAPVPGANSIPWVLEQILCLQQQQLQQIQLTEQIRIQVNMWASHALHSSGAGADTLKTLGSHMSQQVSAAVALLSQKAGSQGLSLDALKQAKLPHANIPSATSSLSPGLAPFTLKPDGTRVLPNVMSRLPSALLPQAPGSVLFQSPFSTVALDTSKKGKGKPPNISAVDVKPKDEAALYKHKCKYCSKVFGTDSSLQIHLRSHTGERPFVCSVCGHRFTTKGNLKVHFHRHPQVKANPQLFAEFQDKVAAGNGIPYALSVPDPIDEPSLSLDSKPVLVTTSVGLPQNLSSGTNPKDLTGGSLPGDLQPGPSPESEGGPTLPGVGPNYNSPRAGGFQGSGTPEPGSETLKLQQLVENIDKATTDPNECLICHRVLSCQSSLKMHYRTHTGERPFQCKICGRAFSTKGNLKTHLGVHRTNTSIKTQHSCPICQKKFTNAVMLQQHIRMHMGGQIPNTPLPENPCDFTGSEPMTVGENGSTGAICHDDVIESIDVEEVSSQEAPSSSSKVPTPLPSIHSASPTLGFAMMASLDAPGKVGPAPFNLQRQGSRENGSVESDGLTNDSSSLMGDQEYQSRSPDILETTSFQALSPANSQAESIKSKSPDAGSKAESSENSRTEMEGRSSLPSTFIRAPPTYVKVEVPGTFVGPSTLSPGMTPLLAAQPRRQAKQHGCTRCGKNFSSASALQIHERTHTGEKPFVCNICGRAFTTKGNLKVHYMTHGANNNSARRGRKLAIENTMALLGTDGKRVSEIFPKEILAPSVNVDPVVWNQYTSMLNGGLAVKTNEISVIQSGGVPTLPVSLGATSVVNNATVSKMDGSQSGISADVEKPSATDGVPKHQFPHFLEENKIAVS
Method: universal PBM
Form: double-stranded DNA, one strand shown
Medium: in vitro
Concentration: 600 nM
Notes: 8-mer, flanks averaged, mean of replicates
Direction: higher = stronger binding
| Strand | E-score |
| --- | --- |
| ACCCAAAT | 0.105 |
| ACAAGGCG | -0.191 |
| ACTGGCTA | -0.119 |
| ATCAACAC | 0.198 |
| AGTTCAGG | -0.178 |
| CCCAGGCC | -0.434 |
| ACGGTATG | 0.013 |
| GACACCTA | 0.00101 |
| GCATCCAC | -0.13 |
| AGCTATAA | 0.247 |
| TCCCTGAA | 0.00128 |
| GTGCACAC | -0.0706 |
| CAGTCTAA | 0.147 |
| CGTGTCAG | -0.0895 |
| CGTGTACA | 0.0515 |
| TCGCCCGA | -0.265 |
| AATGACCT | 0.129 |
| ACTCGACC | -0.0892 |
| CTCGAGAA | -0.153 |

Set 2
Target: Histone acetyltransferase KAT6A, both winged helices, GST fusion (KAT6A, Homo sapiens, UniProt Q92794, residues 1-181)
Method: protein binding microarray
Form: double-stranded DNA, one strand shown
Medium: in vitro
Concentration: not given
Notes: 8-mer, flanks averaged, mean of 2 arrays, mostly near background
Relative to: not given
Direction: higher = stronger binding
Residues (chain): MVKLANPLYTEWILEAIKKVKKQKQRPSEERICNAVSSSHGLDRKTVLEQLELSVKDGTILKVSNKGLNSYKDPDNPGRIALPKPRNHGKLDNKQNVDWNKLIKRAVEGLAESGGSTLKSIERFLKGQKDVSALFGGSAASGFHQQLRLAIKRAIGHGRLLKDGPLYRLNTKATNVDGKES
| Strand | E-score |
| --- | --- |
| CAATAGCA | -0.0545 |
| GCGACCCC | 0.0905 |
| AAAGCACG | -0.115 |
| ACCTCTGC | -0.0722 |
| AGGGAAAT | -0.162 |
| GAGTTACC | -0.114 |
| CTCCGGAG | 0.00663 |
| GAGAGAAC | -0.207 |
| AACTCACC | -0.145 |
| AAGCCCGA | 0.0251 |
| AGGAAGAG | -0.118 |
| GCCATGGC | -0.00383 |
| GGGCATAA | -0.0717 |
| AAGGCCGA | 0.172 |
| CAAGTTTA | -0.108 |
| CACTGCAG | -0.161 |
| GAGATCTC | 0.0297 |
| CGGCTAAG | 0.275 |

Set 3
Target: Fragile X messenger ribonucleoprotein 1, C-terminal low-complexity region (Fmr1, Mus musculus, UniProt P35922)
Method: RNA Bind-n-Seq
Form: RNA
Medium: in vitro
Concentration: 200 nM
Notes: whole 134-nt RNA, ends assumed
Added: 150 mM KCl
Relative to: input library
Direction: higher = stronger binding
Constant ends, left off below: GGGAGUUCUACAGUCCGACGAUC … UGGAAUUCUCGGGUGUCAAGG
| Strand | log2 enrichment |
| --- | --- |
| AGUCCUGUGCUACACAUCGUAUGUACCGAAUCGGGAAAGGGAAAGGGUUUUUUUGGGAAAGUAUUAUGUUACGCCGUUCGGAUCUGCACU | 0.0476 |
| CCUGUGCUACACAUCGUAUGUACCGAAUCAAAUUUUUUUAAAUUUUUAAACCCCCCCAAAAAAGUAUUAUGUUACGCCGUUCGGAUCUGC | 0.141 |
| UGGCCCUGGUGGCAUGCGGGGAGGAAGAGGUGGCCUCAUGGAUCGUAGUGGUCCCGGUGGAAUGUUCAGAGGUGGCCGUGGUGGAGACAG | 0.177 |
| AGUCCUGUGCUACACAUCGUAUGUACCGAAUCGGGGAGGGGUUUUUGGGGAAAGGGGAAAGUAUUAUGUUACGCCGUUCGGAUCUGCACU | 0.85 |
| AGUCCUGUGCUACACAUCGUAUGUACCGAAUCGGGCCCCGGGGCCCCGGCCCCGGGGAAAGUAUUAUGUUACGCCGUUCGGAUCUGCACU | -1.15 |
| ACCAUGCAGGUGGGCAUCUUUGGGAAGUGGGGCAAGGGGGGGAUAGGGAGGGGGGUAACACUUUGGGAACAGGUGGUCCCGGGUCGUUUC | 0.734 |
| UGGAAGGUGGAUUUUGUUUAUUUUUUUAGCUCAUUUCCAGGGGUGGGAAUUUUUUUUUAAUAUGUGUCAUGAAUAAAGUUGUUUUUGAAA | 0.0989 |
| UCCUGUGCUACACAUCGUAUGUACCGAAUCGGGAAAAAAAGGGUUUGGGUUUUUUUGGGAAAGUAUUAUGUUACGCCGUUCGGAUCUGCA | -0.138 |
| CACAGACAACACGCACCCACACAGACACAGAGGGAAGGGGUUGGGAUGGGGAUAGGGUGCACAGCAGGGCGGGGUAGGACCCCAGCCCCU | 1.24 |

Set 4
Target: RNA binding protein fox-1 homolog 2, RRM domain, GST-SBP tag (RBFOX2, Homo sapiens, UniProt O43251-10, residues 100-194)
Method: RNA Bind-n-Seq
Form: RNA
Medium: in vitro
Concentration: 365 nM
Notes: natural RNA segment, single round, ends assumed
Relative to: no-protein control
Direction: higher = stronger binding
Constant ends, left off below: GGGAGUUCUACAGUCCGACGAUC … UGGAAUUCUCGGGUGCCAA
Residues (chain): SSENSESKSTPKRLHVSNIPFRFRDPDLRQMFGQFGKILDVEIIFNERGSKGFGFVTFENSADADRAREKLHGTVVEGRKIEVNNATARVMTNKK
| Strand | RBNS enrichment (R) |
| --- | --- |
| AUGCUGUCUCUGGCUGGGCCUUGGGGACACUUGCCACAUGGGUCCCAAAUGGCUGGGCAAGGGUGACCUUGAUUCACACACCACAGCCUCCCCUUGAGUGAUGGAAGGUG | 0.334 |
| CUGGUCCUAGUCACUGGCCGAGGAUAAGCCCGUCCCUGUCCCACAUUCUAGCCCCACUAUGCGGGGGUGCUGUUGUCCUGCCUGUGUCUCAUCCCCAGCUGCCUAAGCUA | 0.788 |
| UUUCUACCACCAUAUUUUAAAGAUAUUUUUAUGACCGUGUAUACUCACACUUUGCUUGUAUUUUAAAAGGAGGAUAUAUUUGCACUUAUGUAUACUUUUACAGUUUGCCA | 5.69 |
| UGGUGGGCAGCAGACUAAAGAGUUAUGUUGGAUAGUUUUAUUUCUGUGGCUGAAAAUAAAAUCUUGUCUAGCACAGUUAAAGUCAUUAAAAAUAAAAAUGACAGCUUUAG | 0.67 |
| GACCCUGCGAGGACACGGGCACCCAGCAGCACCUCUCCUCUGUUACCUUCCCCUUGGCGAUCGCUCGGGUUUGUGUUAAGUUAAUCUGUAUGUCCUGUCUGCCAGCGUUC | 1.13 |
| GUUGCCCUCCUACCCAAUUGUCAUGAUUGUCCUUAGUACCCUAGGCCUAGAUUCUGAGAUCUUCCCAUUCUAGGCCUACAAGCACUACUUGCUGUAGCUGAGACUUGUCU | 0.289 |
| UUAAAGUCCUUCAGUAUUUAUGGCCACCCCCACUCCAUGUGAGUCCACUUGGCUCUGUCCUCCCCAUUUUAGCCACCUCUGUAUUUAUGUUGCUUAUUCGUCUGUUUUUA | 0.544 |
| CUUAGGAACGAAAUUGUGCCCAGCCAGAAAGAAUGCUGGCUCAUAAUAGAUUCUUACCCAAUGCCACUGUCAGUAUCCCAGGUAGUGAAAUUCUUAAAGUGGUGGGGUAU | 0.857 |

Repeated from above (set 1):
| Strand | E-score |
| --- | --- |
| CCCAGGCC | -0.434 |
| ACGGTATG | 0.013 |
| GACACCTA | 0.00101 |
| GCATCCAC | -0.13 |
| AGCTATAA | 0.247 |
| TCCCTGAA | 0.00128 |
| GTGCACAC | -0.0706 |
| CAGTCTAA | 0.147 |
